Assay results of several laboratories.
Every numbered part comes from another study and shows a few of its results, in no order.
UniProt P10721, sequence (whole entry, unmodified, looked up): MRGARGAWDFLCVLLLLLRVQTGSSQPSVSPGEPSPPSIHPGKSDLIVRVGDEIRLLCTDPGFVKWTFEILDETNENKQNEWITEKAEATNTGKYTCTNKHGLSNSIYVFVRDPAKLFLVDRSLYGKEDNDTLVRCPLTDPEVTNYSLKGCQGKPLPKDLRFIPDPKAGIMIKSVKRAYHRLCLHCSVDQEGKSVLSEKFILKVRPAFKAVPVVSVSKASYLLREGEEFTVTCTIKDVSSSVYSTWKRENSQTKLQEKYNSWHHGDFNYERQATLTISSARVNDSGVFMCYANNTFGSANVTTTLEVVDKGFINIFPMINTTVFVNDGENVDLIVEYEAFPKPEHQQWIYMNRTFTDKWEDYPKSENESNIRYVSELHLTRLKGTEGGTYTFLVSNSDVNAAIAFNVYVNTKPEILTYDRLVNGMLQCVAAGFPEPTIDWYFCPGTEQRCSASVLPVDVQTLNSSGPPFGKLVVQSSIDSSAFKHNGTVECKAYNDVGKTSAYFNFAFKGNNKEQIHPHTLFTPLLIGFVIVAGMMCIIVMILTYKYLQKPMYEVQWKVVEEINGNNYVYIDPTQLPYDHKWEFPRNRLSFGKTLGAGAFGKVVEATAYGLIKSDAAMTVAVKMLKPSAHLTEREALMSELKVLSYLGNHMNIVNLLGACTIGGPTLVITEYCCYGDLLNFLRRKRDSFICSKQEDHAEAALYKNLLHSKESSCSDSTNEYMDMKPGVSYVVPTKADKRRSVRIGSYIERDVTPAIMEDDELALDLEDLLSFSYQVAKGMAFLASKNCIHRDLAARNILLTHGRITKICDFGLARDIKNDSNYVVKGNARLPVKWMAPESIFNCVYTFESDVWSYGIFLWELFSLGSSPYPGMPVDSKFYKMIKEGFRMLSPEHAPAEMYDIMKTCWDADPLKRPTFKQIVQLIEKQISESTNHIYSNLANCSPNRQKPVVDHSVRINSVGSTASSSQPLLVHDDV
UniProt Q13546, sequence (whole entry, looked up): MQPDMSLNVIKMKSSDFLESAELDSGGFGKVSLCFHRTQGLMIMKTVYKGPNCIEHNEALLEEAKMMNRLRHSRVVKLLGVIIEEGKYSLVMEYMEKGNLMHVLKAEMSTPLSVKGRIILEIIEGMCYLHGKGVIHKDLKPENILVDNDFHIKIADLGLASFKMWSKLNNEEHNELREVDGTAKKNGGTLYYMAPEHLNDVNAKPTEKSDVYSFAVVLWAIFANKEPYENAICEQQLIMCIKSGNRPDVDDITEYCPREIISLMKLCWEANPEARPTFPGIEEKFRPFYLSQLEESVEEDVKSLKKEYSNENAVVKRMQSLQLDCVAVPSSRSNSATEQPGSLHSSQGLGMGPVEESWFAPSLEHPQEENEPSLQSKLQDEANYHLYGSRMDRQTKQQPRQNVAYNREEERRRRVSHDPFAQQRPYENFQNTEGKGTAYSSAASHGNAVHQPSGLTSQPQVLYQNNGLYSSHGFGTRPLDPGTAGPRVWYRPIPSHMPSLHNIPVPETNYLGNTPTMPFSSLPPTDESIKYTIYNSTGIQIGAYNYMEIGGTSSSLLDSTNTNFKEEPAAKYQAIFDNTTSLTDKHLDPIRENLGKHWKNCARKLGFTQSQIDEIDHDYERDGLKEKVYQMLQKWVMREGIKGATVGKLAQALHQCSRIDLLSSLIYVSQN
UniProt Q9H3Y6, sequence (whole entry, looked up): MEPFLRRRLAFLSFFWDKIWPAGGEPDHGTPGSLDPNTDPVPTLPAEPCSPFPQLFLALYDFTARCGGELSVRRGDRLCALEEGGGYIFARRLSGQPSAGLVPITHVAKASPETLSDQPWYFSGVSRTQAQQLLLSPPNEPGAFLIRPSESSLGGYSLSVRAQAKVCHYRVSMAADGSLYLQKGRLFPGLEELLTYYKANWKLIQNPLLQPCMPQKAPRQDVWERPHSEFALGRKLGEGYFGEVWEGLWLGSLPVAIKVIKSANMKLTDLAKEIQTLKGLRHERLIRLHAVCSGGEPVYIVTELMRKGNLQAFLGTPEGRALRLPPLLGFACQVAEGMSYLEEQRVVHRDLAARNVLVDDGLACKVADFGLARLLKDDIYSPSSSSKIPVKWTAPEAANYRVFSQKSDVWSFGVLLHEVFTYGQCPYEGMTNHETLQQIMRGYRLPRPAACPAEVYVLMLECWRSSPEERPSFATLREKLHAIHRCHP
UniProt P51812, sequence (whole entry, looked up): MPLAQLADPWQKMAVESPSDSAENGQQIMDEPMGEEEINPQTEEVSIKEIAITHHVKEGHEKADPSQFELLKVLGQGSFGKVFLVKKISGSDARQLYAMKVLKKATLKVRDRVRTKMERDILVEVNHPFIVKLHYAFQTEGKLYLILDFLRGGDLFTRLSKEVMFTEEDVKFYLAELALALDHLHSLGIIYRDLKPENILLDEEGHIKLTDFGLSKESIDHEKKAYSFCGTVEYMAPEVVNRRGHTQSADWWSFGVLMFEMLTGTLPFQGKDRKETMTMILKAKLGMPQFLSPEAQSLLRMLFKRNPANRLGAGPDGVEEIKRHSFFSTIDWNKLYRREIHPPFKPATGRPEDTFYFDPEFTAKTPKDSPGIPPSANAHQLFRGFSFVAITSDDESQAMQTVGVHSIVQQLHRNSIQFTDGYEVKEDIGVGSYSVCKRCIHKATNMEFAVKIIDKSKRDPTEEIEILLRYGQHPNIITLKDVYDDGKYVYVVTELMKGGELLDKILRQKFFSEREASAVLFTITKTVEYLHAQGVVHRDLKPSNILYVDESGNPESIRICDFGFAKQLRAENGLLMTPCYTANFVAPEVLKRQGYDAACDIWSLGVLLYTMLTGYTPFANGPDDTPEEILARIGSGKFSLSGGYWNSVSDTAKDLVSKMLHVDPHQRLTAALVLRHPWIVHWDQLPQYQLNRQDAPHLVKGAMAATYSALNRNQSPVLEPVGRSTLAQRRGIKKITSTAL
UniProt Q16620, sequence (whole entry, looked up): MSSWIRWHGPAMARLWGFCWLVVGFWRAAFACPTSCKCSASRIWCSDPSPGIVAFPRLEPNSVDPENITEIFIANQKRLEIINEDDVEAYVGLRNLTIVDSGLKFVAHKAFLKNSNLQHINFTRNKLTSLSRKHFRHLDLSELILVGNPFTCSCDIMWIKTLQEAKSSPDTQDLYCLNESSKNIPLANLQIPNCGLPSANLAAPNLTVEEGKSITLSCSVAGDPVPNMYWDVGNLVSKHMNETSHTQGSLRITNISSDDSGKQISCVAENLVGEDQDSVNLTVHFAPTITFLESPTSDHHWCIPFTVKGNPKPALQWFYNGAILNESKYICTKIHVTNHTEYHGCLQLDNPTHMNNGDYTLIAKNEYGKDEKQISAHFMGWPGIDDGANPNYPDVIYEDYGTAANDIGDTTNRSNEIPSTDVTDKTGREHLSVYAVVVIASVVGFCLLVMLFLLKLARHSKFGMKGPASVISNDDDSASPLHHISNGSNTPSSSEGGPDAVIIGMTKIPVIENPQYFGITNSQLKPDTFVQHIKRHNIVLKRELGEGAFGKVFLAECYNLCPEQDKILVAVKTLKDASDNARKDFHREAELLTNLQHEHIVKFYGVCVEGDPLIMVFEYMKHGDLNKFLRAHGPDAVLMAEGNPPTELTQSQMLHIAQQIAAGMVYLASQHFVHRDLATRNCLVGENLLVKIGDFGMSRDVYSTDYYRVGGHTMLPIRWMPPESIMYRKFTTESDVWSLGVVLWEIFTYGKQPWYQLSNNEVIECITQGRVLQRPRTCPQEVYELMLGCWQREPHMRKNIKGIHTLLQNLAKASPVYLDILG
UniProt Q16584, sequence (whole entry, looked up): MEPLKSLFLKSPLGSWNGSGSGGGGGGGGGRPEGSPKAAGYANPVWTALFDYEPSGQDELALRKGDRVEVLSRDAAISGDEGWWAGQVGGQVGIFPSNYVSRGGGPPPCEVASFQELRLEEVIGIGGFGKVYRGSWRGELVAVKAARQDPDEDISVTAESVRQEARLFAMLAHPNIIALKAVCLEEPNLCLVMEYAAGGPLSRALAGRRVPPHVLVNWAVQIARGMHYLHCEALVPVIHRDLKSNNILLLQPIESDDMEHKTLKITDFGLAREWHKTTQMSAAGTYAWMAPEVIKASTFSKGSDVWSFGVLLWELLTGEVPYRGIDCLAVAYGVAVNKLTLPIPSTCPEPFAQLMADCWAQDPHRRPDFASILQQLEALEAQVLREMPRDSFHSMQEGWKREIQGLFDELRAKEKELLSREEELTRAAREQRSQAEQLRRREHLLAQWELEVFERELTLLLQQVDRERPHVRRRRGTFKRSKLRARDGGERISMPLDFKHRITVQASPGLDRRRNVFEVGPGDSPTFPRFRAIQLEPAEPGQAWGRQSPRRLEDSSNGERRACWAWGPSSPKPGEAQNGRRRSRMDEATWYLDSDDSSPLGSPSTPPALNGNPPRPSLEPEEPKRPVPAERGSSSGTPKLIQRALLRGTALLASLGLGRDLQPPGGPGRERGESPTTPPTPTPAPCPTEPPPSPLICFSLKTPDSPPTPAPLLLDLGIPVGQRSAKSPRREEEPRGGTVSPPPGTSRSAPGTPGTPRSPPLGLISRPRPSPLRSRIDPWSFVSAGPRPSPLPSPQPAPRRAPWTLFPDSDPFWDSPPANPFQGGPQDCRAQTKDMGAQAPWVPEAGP

Series 1
Target: ATP-dependent RNA helicase DDX3X, helicase core (DDX3X, Homo sapiens, UniProt O00571, residues 132-607)
UniProt O00571, sequence (132-607, looked up): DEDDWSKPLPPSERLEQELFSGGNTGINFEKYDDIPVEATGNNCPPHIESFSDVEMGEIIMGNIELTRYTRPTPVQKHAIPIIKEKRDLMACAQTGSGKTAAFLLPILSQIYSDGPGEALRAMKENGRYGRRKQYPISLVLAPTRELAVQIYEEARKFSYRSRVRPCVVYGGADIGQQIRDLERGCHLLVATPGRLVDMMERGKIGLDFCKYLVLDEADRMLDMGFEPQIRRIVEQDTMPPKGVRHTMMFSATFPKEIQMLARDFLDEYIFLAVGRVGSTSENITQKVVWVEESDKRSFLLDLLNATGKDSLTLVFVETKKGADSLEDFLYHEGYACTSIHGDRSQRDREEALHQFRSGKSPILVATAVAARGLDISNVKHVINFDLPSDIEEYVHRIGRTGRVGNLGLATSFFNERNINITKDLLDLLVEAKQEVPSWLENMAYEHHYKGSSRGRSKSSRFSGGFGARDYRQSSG
Technique: RNA Bind-n-Seq
Form: RNA
Sample: in vitro
Concentration: 90 pmol
Setting: 4-mer, random 30-nt RNA, single round
With: 3 µM iPr-DMDA-PatA, 2 mM ADP, 2 mM phosphate
Relative to: input library
Direction: higher = stronger binding
| Sequence | 4-mer enrichment [fold] |
| --- | --- |
| UACA | 1.09 |
| GGAU | 1.02 |
| CAAG | 1.14 |
| CCCC | 1.48 |
| UUAU | 1.16 |
| CCCA | 1.31 |
| GUGA | 1.06 |
| UUUC | 0.943 |

Series 2
Compound: CC(=O)Nc1c(C(C)=O)c(=O)n(C)c2nc(-c3ccc(Cl)cc3Cl)c(-c3ccc(Cl)cc3)cc12
Read-out: cell-free assay
Technique: competition with immobilised ligand
Concentration: 1 µM
| target | remaining binding |
| --- | --- |
| Mast/stem cell growth factor receptor Kit (KIT, Homo sapiens, UniProt P10721, D816V) | 100% |
| Epidermal growth factor receptor (EGFR, Homo sapiens, UniProt P00533, del752-759) | 100% |
| Mast/stem cell growth factor receptor Kit (KIT, Homo sapiens, UniProt P10721, V559D/V654A) | 100% |
| Ribosomal protein S6 kinase alpha-3, N-terminal kinase domain (RPS6KA3, Homo sapiens, UniProt P51812) | 90% |
| Uncharacterized serine/threonine-protein kinase SBK3 (SBK3, Homo sapiens, UniProt P0C264) | 100% |
| Serine/threonine-protein kinase LATS2 (LATS2, Homo sapiens, UniProt Q9NRM7) | 100% |
| Homeodomain-interacting protein kinase 1 (HIPK1, Homo sapiens, UniProt Q86Z02) | 99% |
| RAF proto-oncogene serine/threonine-protein kinase (RAF1, Homo sapiens, UniProt P04049) | 100% |
| Tyrosine-protein kinase Srms (SRMS, Homo sapiens, UniProt Q9H3Y6) | 78% |
| Ephrin type-B receptor 1 (EPHB1, Homo sapiens, UniProt P54762) | 100% |
| Rho-associated protein kinase 1 (ROCK1, Homo sapiens, UniProt Q13464) | 100% |
| SNF-related serine/threonine-protein kinase (SNRK, Homo sapiens, UniProt Q9NRH2) | 78% |
| BDNF/NT-3 growth factors receptor (NTRK2, Homo sapiens, UniProt Q16620) | 100% |
| Receptor-interacting serine/threonine-protein kinase 1 (RIPK1, Homo sapiens, UniProt Q13546) | 100% |
| Mitogen-activated protein kinase kinase kinase 11 (MAP3K11, Homo sapiens, UniProt Q16584) | 100% |

Series 3
Target: Interferon regulatory factor 5, full length, phosphomimetic (IRF5, Homo sapiens, UniProt Q13568-2, residues 1-514, S451D/S453D/S456D/S462D)
Technique: protein-binding microarray
Form: double-stranded DNA, one strand shown
Sample: in vitro
Concentration: 940 nM top
Setting: 60-bp whole probe
With: salmon DNA 0.4 mg/ml
Relative to: random background probes
Direction: higher = stronger binding
Shared flanks, not repeated: GCCTAGCAC … GTCTTGATTCGCTTGACGCTGCTG
| Sequence | fitted relative affinity |
| --- | --- |
| TTAGACTTCGGGACTGGATTAGTGCTA | -0.271 z-score |
| CACGGACTGCTACTGCTGACGTGCTAG | -0.594 z-score |
| TTAGGTTTCGGTATCTGTTAGTGCTAG | 14.2 z-score |
| GTAGGTATCCTTCTCCTTTAGTGCTAG | 0.551 z-score |
| TCCAAATTGTCTCTGTCCCTGTGCTAG | 1.29 z-score |
| GACGGTCTCCTTCTCCAGACGTGCTAG | 0.58 z-score |
| GACGATTTCTGTTCCGAGACGTGCTAG | 1.26 z-score |
| GCCAAAAGTGTAAATGTAAGGTGCTAG | -0.352 z-score |

Mixed results
| Compound | technique | host | dose | setting | measurement | value |
| --- | --- | --- | --- | --- | --- | --- |
| CC(C)n1cnc(-c2ccc(F)cc2)c1-c1ncc(C(=O)Nc2ccc(N3CCN(C)CC3)cc2)[nH]1 | phase 2a trial | idiopathic pulmonary fibrosis patients | dose not given | adverse event grade 5, all dose arms pooled | patients with decreased appetite | 0% |

Excerpt of the above (series 1):
| Sequence | 4-mer enrichment [fold] |
| --- | --- |
| UUUC | 0.943 |
| UUAU | 1.16 |
| GUGA | 1.06 |
| UACA | 1.09 |
| CCCC | 1.48 |
